Results pooled from the literature.
A part holds a random share of what one study measured. Values joined by “and” are separate records of one study, mostly repeats; a detail may differ.

Set 1
Target: Calcium/calmodulin-dependent protein kinase type 1B (PNCK, Homo sapiens, UniProt Q6P2M8)
Chain of UniProt Q6P2M8 (whole entry, looked up): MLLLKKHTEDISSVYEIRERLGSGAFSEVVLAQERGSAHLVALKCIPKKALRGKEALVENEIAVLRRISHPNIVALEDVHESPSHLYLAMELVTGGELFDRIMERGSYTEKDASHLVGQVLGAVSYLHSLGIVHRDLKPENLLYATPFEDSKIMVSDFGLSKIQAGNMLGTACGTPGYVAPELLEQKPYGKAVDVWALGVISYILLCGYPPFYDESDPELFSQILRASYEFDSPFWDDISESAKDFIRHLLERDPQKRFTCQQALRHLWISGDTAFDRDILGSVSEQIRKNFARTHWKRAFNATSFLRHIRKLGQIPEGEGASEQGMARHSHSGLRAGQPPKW
Observed: enzyme activity
Mode: inhibitor
Concentration: 0.5 µM
Reference: control
SMILES	remaining activity [%]
Cc1ccc(Nc2nccc(N(C)c3ccc4c(C)n(C)nc4c3)n2)cc1S(N)(=O)=O	95.9
O=C1NC(=O)C(c2cn(CCCn3ccnc3)c3ccccc23)=C1Nc1ccccc1	90.6
CC(C)[C@H](CO)Nc1nc(Nc2cc(N)cc(Cl)c2)c2ncn(C(C)C)c2n1	132
O=c1c2ccccc2[nH]c(=S)n1CCN1CCC(=C(c2ccc(F)cc2)c2ccc(F)cc2)CC1	109
CCOC(=O)c1c(C)[nH]c(/C=C2\C(=O)Nc3ccccc32)c1C	88.6
NCCNc1ncc(C(N)=O)c(Nc2cccc(C(F)(F)F)c2)n1	57.3
O=C(O)c1ccc2c3c1cccc3c(=O)n1c3ccccc3nc21	101
CO[C@H]1C[C@@H]2CC[C@@H](C)[C@@](O)(O2)C(=O)C(=O)N2CCCC[C@H]2C(=O)O[C@H]([C@H](C)C[C@@H]2CC[C@@H](O)[C@H](OC)C2)CC(=O)[C@H](C)/C=C(\C)[C@@H](O)[C@@H](OC)C(=O)[C@H](C)C[C@H](C)/C=C/C=C/C=C/1C	95.4
Cc1nc(-c2ccccc2)c(-c2ccncc2)o1	96.6
COc1cc2ncnc(Nc3ccc(F)c(Cl)c3)c2cc1OCCCN1CCOCC1	108
CNC(=O)c1cc(Oc2ccc(NC(=O)Nc3ccc(Cl)c(C(F)(F)F)c3)cc2)ccn1	94.7
CN(C)c1ccc(C=C2C(=O)Nc3ccccc32)cc1	102
COc1cc2nccc(Oc3ccc(NC(=S)NC(=O)c4ccccc4C)cc3)c2cc1OC	93.2
C#Cc1cccc(Nc2ncnc3cc(OCCOC)c(OCCOC)cc23)c1	103
OCC(O)CCON=C1C(c2c(O)[nH]c3ccccc23)=Nc2ccccc21 (stereo not drawn)	101
O=C1NC(=O)C(c2cn(CCCO)c3ncccc23)=C1c1cnccn1	94.9

Set 2
Compound: CN1CCC[C@H]1COc1nc2c(c(N3CCN(S(C)(=O)=O)[C@@H](CC#N)C3)n1)CCN(c1cccc3cccc(Cl)c13)C2
Observed: binding
Mode: competitor
Technique: NanoBRET
Cell line: HEK293
KRAS Q61H: GTPase KRas (KRAS, Homo sapiens, UniProt P01116, Q61H)
target	concentration	normalized BRET
KRAS Q61H	15.2 nM	91.8% and 101% and 84.9%
KRAS Q61H	137 nM	86.2% and 87.7% and 80.3%
KRAS Q61H	1.69 nM	101% and 104% and 87.7%
GTPase KRas (KRAS, Homo sapiens, UniProt P01116, G12D)	5.08 nM	98.8% and 96.2% and 107%
GTPase KRas (KRAS, Homo sapiens, UniProt P01116, G13D)	33.3 µM	3.38% and 3.98% and 4.7%
KRAS Q61H	5.08 nM	87.2% and 107% and 99.2%

Set 3
Target: DNA polymerase theta, ATPase domain (POLQ, Homo sapiens, UniProt O75417)
Chain of UniProt O75417 (whole entry, unmodified, looked up): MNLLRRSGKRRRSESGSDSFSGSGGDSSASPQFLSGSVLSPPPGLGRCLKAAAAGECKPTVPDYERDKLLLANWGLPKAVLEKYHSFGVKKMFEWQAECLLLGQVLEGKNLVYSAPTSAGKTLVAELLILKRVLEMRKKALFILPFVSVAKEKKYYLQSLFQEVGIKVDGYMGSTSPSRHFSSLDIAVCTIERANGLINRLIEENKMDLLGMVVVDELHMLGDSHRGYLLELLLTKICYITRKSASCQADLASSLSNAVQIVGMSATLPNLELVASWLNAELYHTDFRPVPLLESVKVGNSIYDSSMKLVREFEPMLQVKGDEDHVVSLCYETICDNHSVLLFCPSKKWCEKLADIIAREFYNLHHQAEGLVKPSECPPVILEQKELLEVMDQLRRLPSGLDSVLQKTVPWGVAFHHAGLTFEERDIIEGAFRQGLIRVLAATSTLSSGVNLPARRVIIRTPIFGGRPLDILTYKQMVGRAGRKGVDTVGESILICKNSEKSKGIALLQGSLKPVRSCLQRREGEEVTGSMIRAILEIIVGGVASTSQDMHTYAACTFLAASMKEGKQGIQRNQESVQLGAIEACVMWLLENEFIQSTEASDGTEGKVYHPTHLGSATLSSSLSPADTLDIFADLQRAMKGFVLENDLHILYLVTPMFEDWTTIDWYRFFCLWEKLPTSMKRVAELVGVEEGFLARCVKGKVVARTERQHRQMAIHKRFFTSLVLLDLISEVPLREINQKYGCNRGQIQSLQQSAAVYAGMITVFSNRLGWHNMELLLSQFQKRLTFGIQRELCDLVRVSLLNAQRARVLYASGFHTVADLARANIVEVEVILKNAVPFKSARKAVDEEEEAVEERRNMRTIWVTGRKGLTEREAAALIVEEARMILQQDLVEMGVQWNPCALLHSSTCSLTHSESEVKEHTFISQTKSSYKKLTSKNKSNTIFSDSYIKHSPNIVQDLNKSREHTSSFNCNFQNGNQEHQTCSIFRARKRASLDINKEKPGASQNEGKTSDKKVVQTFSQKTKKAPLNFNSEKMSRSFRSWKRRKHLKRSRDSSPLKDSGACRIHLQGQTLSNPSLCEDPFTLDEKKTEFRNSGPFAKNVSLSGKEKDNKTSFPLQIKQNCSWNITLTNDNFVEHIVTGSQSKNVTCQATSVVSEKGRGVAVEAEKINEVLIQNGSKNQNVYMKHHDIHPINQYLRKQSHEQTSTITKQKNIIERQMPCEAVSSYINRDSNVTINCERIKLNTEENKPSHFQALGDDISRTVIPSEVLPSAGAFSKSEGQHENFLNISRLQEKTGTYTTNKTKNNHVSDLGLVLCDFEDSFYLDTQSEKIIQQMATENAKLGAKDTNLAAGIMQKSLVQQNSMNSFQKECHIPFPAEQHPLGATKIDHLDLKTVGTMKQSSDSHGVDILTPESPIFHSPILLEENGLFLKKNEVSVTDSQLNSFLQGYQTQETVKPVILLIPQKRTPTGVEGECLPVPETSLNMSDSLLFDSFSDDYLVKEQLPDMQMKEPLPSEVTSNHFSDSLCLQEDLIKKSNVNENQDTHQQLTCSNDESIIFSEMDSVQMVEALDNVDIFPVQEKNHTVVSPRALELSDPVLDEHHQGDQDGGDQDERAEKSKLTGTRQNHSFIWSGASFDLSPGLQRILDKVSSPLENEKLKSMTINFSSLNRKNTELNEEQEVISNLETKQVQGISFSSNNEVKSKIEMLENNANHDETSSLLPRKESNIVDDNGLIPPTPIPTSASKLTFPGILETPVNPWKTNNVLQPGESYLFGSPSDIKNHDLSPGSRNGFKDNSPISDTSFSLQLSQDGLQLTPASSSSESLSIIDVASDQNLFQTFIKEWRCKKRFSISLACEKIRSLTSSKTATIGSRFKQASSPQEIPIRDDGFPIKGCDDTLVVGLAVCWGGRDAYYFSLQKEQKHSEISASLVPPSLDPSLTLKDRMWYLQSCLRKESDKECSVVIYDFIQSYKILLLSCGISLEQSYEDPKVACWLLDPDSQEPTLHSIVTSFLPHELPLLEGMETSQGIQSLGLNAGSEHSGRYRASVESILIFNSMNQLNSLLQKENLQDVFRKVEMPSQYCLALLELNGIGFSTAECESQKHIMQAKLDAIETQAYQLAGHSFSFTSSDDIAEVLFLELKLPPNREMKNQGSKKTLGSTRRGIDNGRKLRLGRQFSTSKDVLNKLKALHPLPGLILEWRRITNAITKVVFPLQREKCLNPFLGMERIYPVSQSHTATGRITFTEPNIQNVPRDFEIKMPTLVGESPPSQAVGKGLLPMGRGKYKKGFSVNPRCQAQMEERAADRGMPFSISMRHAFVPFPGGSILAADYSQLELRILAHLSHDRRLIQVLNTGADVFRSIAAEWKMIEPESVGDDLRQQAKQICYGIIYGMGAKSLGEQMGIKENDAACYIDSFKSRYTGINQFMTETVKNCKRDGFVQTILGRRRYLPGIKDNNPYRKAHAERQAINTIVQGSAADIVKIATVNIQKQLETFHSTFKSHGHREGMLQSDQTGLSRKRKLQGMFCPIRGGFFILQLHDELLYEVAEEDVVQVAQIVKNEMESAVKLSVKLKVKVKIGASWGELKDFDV
Observed: enzyme activity
Mode: inhibitor
Concentration: 77 µM
Reference: untreated
SMILES	remaining activity
CC1CCc2c(N3CCC(O)CC3)c(F)cc3c(=O)c(C(=O)O)cn1c23 (stereo not drawn)	97.9% and 78.8%
Cn1cnc2c(NCc3ccccc3)nc(NCCO)nc21	101%
CCC(=O)c1c(O)cc(O)cc1O	104%
C/C(O)=C(\C#N)C(=O)Nc1ccc(C(F)(F)F)cc1	40.5%
COc1cc(Br)c(Nc2nc(-c3c(C)nc4ncccn34)cs2)c(Br)c1	88.9%
O=C(O)CCNC(=O)c1ccccc1	102%
C[C@H]1NC(=O)NC1=O	100%
CO[C@H]1C[C@@H]2CC[C@@H](C)[C@@](O)(O2)C(=O)C(=O)N2CCCC[C@H]2C(=O)O[C@H]([C@H](C)C[C@@H]2CC[C@@H](OP(C)(C)=O)[C@H](OC)C2)CC(=O)[C@H](C)/C=C(\C)[C@@H](O)[C@@H](OC)C(=O)[C@H](C)C[C@H](C)/C=C/C=C/C=C/1C	92.9%
Cc1cccc(N(C)C(=S)Oc2ccc3ccccc3c2)c1	102% and 100%

Set 4
Compound: CCOc1ccc(Nc2c3c(nc4ccccc24)CCC3)cc1
Organism: Leishmania donovani
Observed: parasite killing
Strain: DD8
medium	concentration	time	inhibition
promastigotes	6.66 µM	72 h	88% and 91% and 84%
promastigotes	1.66 µM	72 h	39% and 41% and 40%
intracellular amastigotes	2 µM	72 h	80% and 84% and 81%
intracellular amastigotes	0.2 µM	24 h	6% and 5% and 3%
promastigotes	1.66 µM	24 h	35% and 30%

Excerpt of the above (set 1):
SMILES	remaining activity [%]
NCCNc1ncc(C(N)=O)c(Nc2cccc(C(F)(F)F)c2)n1	57.3
O=C(O)c1ccc2c3c1cccc3c(=O)n1c3ccccc3nc21	101
CO[C@H]1C[C@@H]2CC[C@@H](C)[C@@](O)(O2)C(=O)C(=O)N2CCCC[C@H]2C(=O)O[C@H]([C@H](C)C[C@@H]2CC[C@@H](O)[C@H](OC)C2)CC(=O)[C@H](C)/C=C(\C)[C@@H](O)[C@@H](OC)C(=O)[C@H](C)C[C@H](C)/C=C/C=C/C=C/1C	95.4
Cc1nc(-c2ccccc2)c(-c2ccncc2)o1	96.6
